Measurements of several laboratories.
Lines come from different studies, so protocols differ. Numbers after ± are the reported error.

| SMILES | test system | conditions | tissue uptake |
| --- | --- | --- | --- |
| CC(C)[C@H](NC(=O)[C@@H]1CCCN1C(=O)[C@H](CCCNC(=N)N)NC(=O)[C@H](CS)NC(=O)[C@H](Cc1c[nH]c2ccccc12)NC(=O)[C@H](CCCNC(=N)N)NC(=O)[C@@H](Cc1ccccc1)NC(=O)[C@H](Cc1c[nH]cn1)NC(=O)[C@H](CCC(=O)O)NC(=O)[C@H](CS)NC(=O)[C@H](CS)NC(=O)CNC(=O)[C@@H]1CC(=O)N[C@@H](CCCNC(=N)N)C(=O)NCC(=O)N[C@@H](CC(=O)O)C(=O)N[C@H](Cc2ccc(O)cc2)C(=O)N1)C(N)=O [technetium-99m labelled] | C57 mouse, female, B16/F1 melanoma, liver | intravenous, 0.037 MBq, 2 h | 2.52 ± 0.41 %ID/g |
| CN1C(=O)[C@@H](Cc2ccc(O)c(I)c2)NC(=O)CNC(=O)[C@H](Cc2ccc3ccccc3c2)NC(=O)[C@H](CCCNC(=N)N)NC(=O)[C@H]1CCCNC(=O)c1ccc(CNC(=O)CN2CCN(CC(=O)O)CCN(CC(=O)O)CCN(CC(=O)O)CC2)cc1 [lutetium-177 labelled] | female CB-17 SCID mouse, Daudi xenograft, large intestine | intravenous, 6 h, CXCR4 blocking, added: AMD3100 2 mg/kg coinjected | 0.43 ± 0.12 %ID/g |
| CN(C)c1ccc(-c2nc3ccc(OCCCCCN4CCN5CCN(CC4)CC(=O)[O][Al]([18F])[O]C(=O)C5)cc3s2)cc1 | ICR mouse, blood | intravenous, 30 min | 0.54 ± 0.12 %ID/g |
| CC(C)[C@H](NC(=O)[C@@H]1CCCN1C(=O)[C@H](CCCNC(=N)N)NC(=O)[C@H](CS)NC(=O)[C@H](Cc1c[nH]c2ccccc12)NC(=O)[C@H](CCCNC(=N)N)NC(=O)[C@@H](Cc1ccccc1)NC(=O)[C@H](Cc1c[nH]cn1)NC(=O)[C@H](CCC(=O)O)NC(=O)[C@H](CS)NC(=O)[C@H](CS)NC(=O)[C@@H]1CC(=O)N[C@@H](CCCNC(=N)N)C(=O)NCC(=O)N[C@@H](CC(=O)O)C(=O)N[C@H](Cc2ccc(O)cc2)C(=O)N1)C(N)=O [technetium-99m labelled] | C57 mouse, female, B16/F1 melanoma, brain | intravenous, 0.037 MBq, 4 h | 0.04 ± 0.01 %ID/g |
| CCCC[C@H](NC(=O)CNC(=O)CNC(=O)CN1CCN(CC(=O)O)CCN(CC(=O)O)CCN(CC(=O)O)CC1)C(=O)N[C@H]1CC(=O)NCCCC[C@@H](C(N)=O)NC(=O)[C@H](Cc2c[nH]c3ccccc23)NC(=O)[C@H](CCCNC(=N)N)NC(=O)[C@@H](Cc2ccccc2)NC(=O)[C@H](Cc2c[nH]cn2)NC1=O [copper-64 labelled] | C57 mouse female B16/F1 melanoma, intestines | intravenous, 0.037 MBq, 2 h | 10.7 ± 1.68 %ID |
| CCCC[C@H](NC(=O)CNC(=O)CNC(=O)CN1CCN(CC(=O)O)CCN(CC(=O)O)CCN(CC(=O)O)CC1)C(=O)N[C@H]1CC(=O)NCCCC[C@@H](C(N)=O)NC(=O)[C@H](Cc2c[nH]c3ccccc23)NC(=O)[C@H](CCCNC(=N)N)NC(=O)[C@@H](Cc2ccccc2)NC(=O)[C@H](Cc2c[nH]cn2)NC1=O [lead-203 labelled] | C57 mouse, heart | intravenous, 0.056 MBq, 2 h | 0.27 ± 0.18 %ID/g |
| CCCC[C@H](NC(=O)CNC(=O)CNC(=O)CN1CCN(CC(=O)O)CCN(CC(=O)O)CC1)C(=O)N[C@H]1CC(=O)NCCCC[C@@H](C(N)=O)NC(=O)[C@H](Cc2c[nH]c3ccccc23)NC(=O)[C@H](CCCNC(=N)N)NC(=O)[C@@H](Cc2ccccc2)NC(=O)[C@H](Cc2c[nH]cn2)NC1=O [copper-64 labelled] | female C57 mouse, B16/F1 melanoma, spleen | intravenous, 0.037 MBq, 4 h | 0.17 ± 0.08 %ID/g |
| O=C([O-])CN1CCN(CC(=O)[O-])CCN(CC(=O)NCCc2ccc3c(c2)C2C=CCC2C(c2cc4c(cc2Br)OCO4)N3)CCN(CC(=O)[O-])CC1.[111In+3] (centres unmarked) | mouse, Hec50 endometrial tumour, large intestine | 0.5 h post injection | 1.29 ± 0.28 %ID/g |

A few entries again:
| SMILES | test system | conditions | tissue uptake |
| --- | --- | --- | --- |
| CN1C(=O)[C@@H](Cc2ccc(O)c(I)c2)NC(=O)CNC(=O)[C@H](Cc2ccc3ccccc3c2)NC(=O)[C@H](CCCNC(=N)N)NC(=O)[C@H]1CCCNC(=O)c1ccc(CNC(=O)CN2CCN(CC(=O)O)CCN(CC(=O)O)CCN(CC(=O)O)CC2)cc1 [lutetium-177 labelled] | female CB-17 SCID mouse, Daudi xenograft, large intestine | intravenous, 6 h, CXCR4 blocking, added: AMD3100 2 mg/kg coinjected | 0.43 ± 0.12 %ID/g |
